Experimental data of several laboratories.
Every numbered part comes from another study and shows a few of its results, in no order. Values joined by “and” are separate records of one study, mostly repeats; a detail may differ.
UniProt P28222, sequence (whole entry, looked up): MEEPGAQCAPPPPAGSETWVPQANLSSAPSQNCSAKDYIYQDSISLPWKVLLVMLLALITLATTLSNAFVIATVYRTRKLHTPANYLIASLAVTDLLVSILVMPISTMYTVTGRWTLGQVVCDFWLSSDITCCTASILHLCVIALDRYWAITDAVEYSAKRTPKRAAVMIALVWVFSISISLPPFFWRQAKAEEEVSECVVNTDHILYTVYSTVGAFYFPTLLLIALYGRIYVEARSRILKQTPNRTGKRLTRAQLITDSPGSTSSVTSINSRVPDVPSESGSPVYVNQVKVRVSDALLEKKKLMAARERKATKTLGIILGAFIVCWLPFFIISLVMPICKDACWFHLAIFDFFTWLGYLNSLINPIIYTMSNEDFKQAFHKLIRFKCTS

Sample 1 — host: human; medium: microsomes or S9; tested at: 2 µM; time: 0.5 h
For `COc1ccccc1N1C(=N)C(C)(C(C)C)NC1=O` (centres unmarked), the remaining compound was 94.3%.
For `Cc1noc(C2CCCN2C(=O)c2ccnc3c2nnn3C)n1` (centres unmarked), the remaining compound was > 100%.
With `c1ccc(Oc2cccc(CNc3ccc4nnnn4n3)c2)cc1` the remaining compound was 64.2%.
The remaining compound of `CCOc1ccc(Nc2ncc(F)c(Nc3ccc(OCC)cc3)n2)cc1` is reported as 32.4%.
`Cn1ccc(-c2cnc(-c3cc(F)ccc3[N+](=O)[O-])nc2)n1` gave a remaining compound of > 99.9%.
For `O=S(=O)(CCc1ccccc1)NCCc1csc2nc(-c3ccccc3F)nn12`, the remaining compound was 2.69%.
`CSc1ccc(C2c3cccn3-c3sc4c(c3CN2C(=O)NCc2ccc(F)cc2)CCCC4)cc1` (centres unmarked) has a remaining compound of 5.17%.
The remaining compound of `Cc1sc(C(=O)O)cc1S(=O)(=O)N1CCCC2(CCS(=O)(=O)C2)C1` (centres unmarked) is reported as > 100%.
With `Cc1noc(C)c1Cc1c(C(=O)N2CCC(C3CCNC3)CC2)noc1C` (centres unmarked) the remaining compound was 61.9%.

Sample 2 — organism: Sarcocystis neurona; read-out: parasite growth; tested at: 10 µM; time: 96 h; relative to: untreated
For `Cc1nc2ccccn2c(=O)c1CCN1CCC(C(=O)c2ccc(F)cc2)CC1`, “log2 fold change” read -0.46.
For `NC(=O)N1c2ccccc2C=Cc2ccccc21`, “log2 fold change” read 0.34.
`CC(=O)SCC(Cc1ccccc1)C(=O)NCC(=O)OCc1ccccc1` (centres unmarked) — result for “log2 fold change”: 0.39.
For `CSc1ccc2c(c1)N(CCC1CCCCN1C)c1ccccc1S2` (centres unmarked), “log2 fold change” read -0.69.
For `CN(C)[C@@H]1C(O)=C(C(N)=O)C(=O)[C@@]2(O)C(O)=C3C(=O)c4c(O)cccc4[C@@](C)(O)[C@H]3[C@H](O)[C@@H]12`, “log2 fold change” read -0.15.
`CCN(CC)CC#CCOC(=O)C(O)(c1ccccc1)C1CCCCC1` (centres unmarked): “log2 fold change” 0.28.
`CC(C)C(=O)Nc1ccc([N+](=O)[O-])c(C(F)(F)F)c1` — result for “log2 fold change”: 0.36.
Under “log2 fold change”, `C[C@H](CCC(=O)O)[C@H]1CC[C@H]2[C@@H]3[C@@H](O)C[C@@H]4C[C@H](O)CC[C@]4(C)[C@H]3CC[C@]12C` is recorded as 0.34.
Under “log2 fold change”, `COc1cc(CNC(=O)CCCC/C=C\C(C)C)ccc1O` is recorded as 0.46.
`CC(C)NCC(O)COc1cccc2[nH]ccc12` (centres unmarked) — result for “log2 fold change”: 0.39.
`COc1cc2nc(N3CCN(C(=O)C4COc5ccccc5O4)CC3)nc(N)c2cc1OC` (centres unmarked) — result for “log2 fold change”: -1.89.
For `O=C1[C@H](CC[C@H](O)c2ccc(F)cc2)[C@@H](c2ccc(O)cc2)N1c1ccc(F)cc1`, “log2 fold change” read -0.42.
Under “log2 fold change”, `CN(C)[C@@H]1C(O)=C(C(N)=O)C(=O)[C@@]2(O)C(O)=C3C(=O)c4c(O)ccc(Cl)c4[C@@H](O)[C@H]3C[C@@H]12` is recorded as -0.28.
`O=C(O)c1cc(=O)c2c(OCC(O)COc3cccc4oc(C(=O)O)cc(=O)c34)cccc2o1`: “log2 fold change” 0.37.

Sample 3 — cell line: A-375; tested at: 100 µM; time: 36 h
For `CC(c1cc2ccccc2s1)N(O)C(N)=O` (centres unmarked), the viability was 107%.
`CCOc1ccc2nc(SCCN3CCOCC3)[nH]c2c1` gave a viability of 104%.
For `Nc1nc(=O)n([C@@H]2CS[C@H](CO)O2)cc1F`, the viability was 87.2%.
`Cn1cc[nH]c1=S` gave a viability of 113%.
With `COc1cc2c(cc1O)[C@@H](Cc1ccc(O)c(Oc3ccc(C[C@@H]4c5cc(OC)c(OC)cc5CCN4C)cc3)c1)N(C)CC2` the viability was 4.37%.
The viability of `O=C(O)c1cccc(-c2noc(-c3ccccc3F)n2)c1` is reported as 80.1%.
The viability of `CO[C@H]1C[C@H](O[C@H]2[C@H](C)O[C@@H](O[C@@H]3/C(C)=C/C[C@@H]4C[C@@H](C[C@]5(C=C[C@H](C)[C@@H](C6CCCCC6)O5)O4)OC(=O)[C@@H]4C=C(C)[C@@H](O)[C@H]5OC/C(=C\C=C\[C@@H]3C)[C@]54O)C[C@@H]2OC)O[C@@H](C)[C@@H]1O` is reported as 22.7%.
The viability of `CCCCN1CCCC[C@H]1C(=O)Nc1c(C)cccc1C` is reported as 81.8% and 89.6%.
The viability of `Cc1ccc(C(=O)Nc2ccc(S(=O)(=O)O)c3cc(S(=O)(=O)O)cc(S(=O)(=O)O)c23)cc1NC(=O)c1cccc(NC(=O)Nc2cccc(C(=O)Nc3cc(C(=O)Nc4ccc(S(=O)(=O)O)c5cc(S(=O)(=O)O)cc(S(=O)(=O)O)c45)ccc3C)c2)c1` is reported as 93.4%.
`Nc1cccc2c1C(=O)N(C1CCC(=O)NC1=O)C2=O` (centres unmarked) has a viability of 101%.
For `N=C(N)N/N=C/c1c(Cl)cccc1Cl`, the viability was 38.4%.
`CCCCc1ncc(/C=C(\Cc2cccs2)C(=O)O)n1Cc1ccc(C(=O)O)cc1` gave a viability of 118%.

Other studies, line by line — tested at: 10 µM
HTR3A: 5-hydroxytryptamine receptor 3A (HTR3A, Homo sapiens, UniProt P46098)
UniProt P46098, sequence (whole entry, looked up): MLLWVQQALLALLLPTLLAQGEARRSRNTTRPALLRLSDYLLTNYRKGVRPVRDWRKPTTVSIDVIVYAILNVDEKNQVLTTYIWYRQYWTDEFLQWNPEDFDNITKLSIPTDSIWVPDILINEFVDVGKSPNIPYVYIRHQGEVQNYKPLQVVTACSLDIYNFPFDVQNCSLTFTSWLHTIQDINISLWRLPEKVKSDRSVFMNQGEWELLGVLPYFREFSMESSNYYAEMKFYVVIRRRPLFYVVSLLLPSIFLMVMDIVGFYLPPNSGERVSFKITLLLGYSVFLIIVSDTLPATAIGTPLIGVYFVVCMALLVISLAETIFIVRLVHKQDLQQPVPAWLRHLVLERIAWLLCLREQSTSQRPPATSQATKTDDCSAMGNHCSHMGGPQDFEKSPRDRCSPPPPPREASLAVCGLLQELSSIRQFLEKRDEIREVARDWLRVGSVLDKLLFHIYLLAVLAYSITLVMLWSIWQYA
With `CC(=O)Nc1c(F)cc(C(=O)N[C@H]2CC[C@H](O)CC2)cc1O[C@@H](C)c1ccccc1` the inhibition was 3.77% (HTR3A; binding, radioligand binding).
`COCCc1ccc(-c2c(C)nc3c(N4CCOCC4)ccnn23)cn1` gave an inhibition of 4.69% (HTR3A; binding, radioligand binding).
`C[C@H](c1ccnc(Nc2nc3ccc(-c4cc(N(C)C)ncn4)cc3[nH]2)c1)N1CCN(C(=O)CC(F)(F)F)CC1` gave an inhibition of 11.5% (HTR1B (Homo sapiens, UniProt P28222); ligand displacement).

Excerpt of the above (sample 3):
With `COc1cc2c(cc1O)[C@@H](Cc1ccc(O)c(Oc3ccc(C[C@@H]4c5cc(OC)c(OC)cc5CCN4C)cc3)c1)N(C)CC2` the viability was 4.37%.
`CCCCc1ncc(/C=C(\Cc2cccs2)C(=O)O)n1Cc1ccc(C(=O)O)cc1` gave a viability of 118%.
For `CC(c1cc2ccccc2s1)N(O)C(N)=O` (centres unmarked), the viability was 107%.
The viability of `O=C(O)c1cccc(-c2noc(-c3ccccc3F)n2)c1` is reported as 80.1%.
For `Nc1nc(=O)n([C@@H]2CS[C@H](CO)O2)cc1F`, the viability was 87.2%.
